Published values of several laboratories.
Each line is one published result; not all experiments were run side by side. ± marks the error that the study gave.
Matrix: plasma

The Tmax of `CS(=O)(=O)c1ccc([C@@H](O)[C@@H](CF)NC(=O)C(Cl)Cl)cc1` is reported as 0.8 ± 0.11 h (chicken (Arbor Acres); oral, 20 mg/kg, together with: saline pretreatment).
`CCCCC[C@H](O)CC[C@@H]1[C@H]2Cc3cccc(OCC(=O)O)c3C[C@H]2C[C@H]1O` has a Tmax of 0.32 h (LC-MS/MS; Japanese PAH patients, male; inhaled, 54 µg, mean).
`C[C@@](Cc1ccc(O)c(O)c1)(NN)C(=O)O` gave a Tmax of 1.75 h (Parkinson's disease patients; oral, high levodopa Cmax subgroup (≥9 µmol/L), median).
For `CN(CCC(=O)O)C(=O)c1ccc2c(c1)CC[C@@H]1[C@@H]2CC[C@]2(C)C(c3cncc(F)c3)=CC[C@@H]12`, the Tmax was 1.93 h (premenopausal women; 60 mg twice daily, after day 14, multiple dose, median).
`COc1nnc2ccc(N3CCC(c4ccc(OCCN5CCN(C)C(=O)[C@H]5C)cc4)CC3)nn12` has a Tmax of 1.72 h (patients; oral, 10 mg twice daily, multiple dose, monotherapy, median).
For `CO[C@H]1CC[C@H](N2C(=O)CNc3ncc(-c4ccc(C(C)(C)O)nc4)nc32)CC1`, the Tmax was 3 h (patients; oral, 45 mg, day -1, median).
With `C[C@H]1[C@H]2N(C(=O)CN(C)N2C(=O)NCc2ccccc2)[C@@H](Cc2ccc(OP(=O)(O)O)cc2)C(=O)N1Cc1cccc2cccnc12` the Tmax was 0.8 h (patients; intravenous infusion, 140 mg/m2 over 4 h, mean).
`CCCCCCCCCCCCCCCC(=O)N[C@@H](CCC(=O)NCCCC[C@@H]1NC(=O)[C@H]([C@@H](C)CC)NC(=O)[C@@H](NC(=O)[C@@H]2CCCN2C(=O)[C@H](Cc2ccccc2)NC(=O)[C@H](Cc2c[nH]cn2)NC(=O)[C@@H](NC(=O)[C@H](CC(=O)O)NC(=O)CC(C)C)[C@@H](C)O)CSSC[C@@H](C(=O)N[C@@H](CCCCN)C(N)=O)NC(=O)CNC(=O)[C@H](CCCCN)NC(=O)[C@H](CO)NC(=O)[C@H](CCCNC(=N)N)NC(=O)[C@@H]2CCCN2C(=O)[C@H](CCC(=O)O)NC(=O)[C@H](Cc2ccccc2)NC1=O)C(=O)O` gave a Tmax of 2 h (healthy volunteers; subcutaneous, 60 mg single, lyophilised formulation, median).
The Tmax of `CCc1nc(C(N)=O)c(Nc2ccc(N3CCC(N4CCN(C)CC4)CC3)c(OC)c2)nc1NC1CCOCC1` is reported as 5.06 h (Japanese patients; oral, 120 mg, cycle 1 day 28, multiple doses, median).
`O=C(c1cccnc1-c1ccncc1)N1CCC(O)(Cc2ccccc2)CC1` has a Tmax of 0.5 h (healthy Japanese adults; oral, 200 mg twice daily, day 14, median).
`C[C@H]1CN(C(=O)CC#N)[C@]12CCN(c1ncnc3[nH]ccc13)C2` has a Tmax of 1 h (healthy adults; oral, 12 mg single dose, median).

Repeated from above:
`C[C@@](Cc1ccc(O)c(O)c1)(NN)C(=O)O` gave a Tmax of 1.75 h (Parkinson's disease patients; oral, high levodopa Cmax subgroup (≥9 µmol/L), median).
